Measurements collected from several papers.
Each line is one published result; not all experiments were run side by side. Numbers after ± are the reported error.
Chain of UniProt P10635 (whole entry, looked up): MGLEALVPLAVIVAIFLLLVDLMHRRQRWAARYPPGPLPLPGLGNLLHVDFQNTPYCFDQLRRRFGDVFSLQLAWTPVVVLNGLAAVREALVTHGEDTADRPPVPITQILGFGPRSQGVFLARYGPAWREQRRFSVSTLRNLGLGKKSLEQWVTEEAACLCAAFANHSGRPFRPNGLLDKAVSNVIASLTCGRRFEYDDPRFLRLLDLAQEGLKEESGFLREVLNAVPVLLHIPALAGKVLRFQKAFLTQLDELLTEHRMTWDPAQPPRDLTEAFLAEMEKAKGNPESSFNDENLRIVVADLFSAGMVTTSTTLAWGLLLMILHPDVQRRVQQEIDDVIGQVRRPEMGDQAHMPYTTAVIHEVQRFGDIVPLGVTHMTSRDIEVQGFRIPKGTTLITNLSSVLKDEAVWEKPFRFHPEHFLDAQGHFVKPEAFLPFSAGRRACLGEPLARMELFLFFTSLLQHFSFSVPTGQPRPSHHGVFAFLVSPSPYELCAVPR

CC(C)(O)c1ncc([S@](N)(=O)=NC(=O)Nc2c3c(cc4c2CCC4)CCC3)s1
nervous system adverse events (healthy human; oral, 100 mg single dose, capsule formulation): 67%

O=C1C2CC3CC1CC(C(=O)N1CCN(c4ccc([N+](=O)[O-])c5ncccc45)CC1)(C3)C2
mean revertant colonies (Salmonella typhimurium; Ames test; TA98; 0.13 µg/well, without S9): 5 colonies/well

CN1CCCNC(=O)c2cccc(c2)C(=O)NCCCN(C)CCCNc2cccc3c2C(=O)c2cccc(c2C3=O)NCCC1
viability (HSC-2; cell growth or viability, CCK-8; 5 µM, 48 h): 16.3%

C=C(NC(=O)c1csc(-c2nc3c(cc2O)-c2nc(cs2)C(=O)NC(C(C)O)C(=O)NC(=C(C)OC)c2nc(cs2)C(=O)NC2c4nc(cs4)C(=O)NC(COC(=O)c4c5c6c(cccc6n4O)COC(=O)C(OC4CC(C)(O)C(N(C)C)C(C)O4)C2OC5)c2nc-3cs2)n1)C(N)=O (stereo not shown)
half-life (ICR mice, Streptococcus pneumoniae ATCC 49169 infected, immunocompromised, blood; intravenous, 4 mg/kg/day three times daily): 6.31 h

O=C(Nc1cnccc1-c1ccc([18F])nc1)c1ccnc(NC(=O)C2CC2)c1
SUV (FVB/NJ mice (both sexes), liver; intravenous, dose not given, 120 min, added: tariquidar 15 mg/kg i.v. pre-dose): 7.19

N#C[C@@H]1CC(F)(F)CN1C(=O)CNC(=O)c1ccnc2c(NC(=O)[C@H](CCCCNC(=O)CCOCCOCCOCCOCCOCCOCCNC(=O)CN3CCN(CC(=O)[O-])CCN(CC(=O)[O-])CCN(CC(=O)[O-])CC3)NC(=O)CCCc3ccc(I)cc3)cccc12.[177Lu+3]
tracer uptake (U-87 MG tumour model; host not given, heart; 24 h, tumour-bearing): 1.72 %ID/g

CC(C)OCCOCc1ccc(OCC(O)CN(N=O)C(C)C)cc1 (stereo not shown)
revertant fold increase (Salmonella typhimurium; Ames test; TA1535; 50 µg/plate, without metabolic activation; baseline: solvent control): 1 fold

O=C1NC2(CC2)COc2ncc(F)cc2[C@H]2COCCN2c2ccn3ncc1c3n2
revertant colonies (Salmonella typhimurium; Ames test; TA97a; 150 µg/plate, 48 h, added: without S9): 89 ± 16 revertants/plate

CCN(CC)CC#CCNc1ccnc2cc(Cl)ccc12
mean revertants (Salmonella typhimurium; mini-Ames test; TA98; 250.0 µg/well, without S9): 11 revertants/well

CNC(=O)C1CCCN(C(=O)C2CC3CCC2N3C(=O)[C@@H]2C[C@@H](O)CN2C(=O)NCc2cccc(Cl)c2F)C1 (mixture of isomers)
remaining activity (Cytochrome P450 2D6 (CYP2D6, Homo sapiens, UniProt P10635); enzyme activity, inhibitor, time-dependent inhibition; 50 µM, preincubated without NADPH; baseline: negative control): 98.5%

Some of these lines once more:
CNC(=O)C1CCCN(C(=O)C2CC3CCC2N3C(=O)[C@@H]2C[C@@H](O)CN2C(=O)NCc2cccc(Cl)c2F)C1 (mixture of isomers)
remaining activity (Cytochrome P450 2D6 (CYP2D6, Homo sapiens, UniProt P10635); enzyme activity, inhibitor, time-dependent inhibition; 50 µM, preincubated without NADPH; baseline: negative control): 98.5%
